Assay results pooled from the literature.
A part holds a random share of what one study measured.
Chain of UniProt P30291 (whole entry, looked up): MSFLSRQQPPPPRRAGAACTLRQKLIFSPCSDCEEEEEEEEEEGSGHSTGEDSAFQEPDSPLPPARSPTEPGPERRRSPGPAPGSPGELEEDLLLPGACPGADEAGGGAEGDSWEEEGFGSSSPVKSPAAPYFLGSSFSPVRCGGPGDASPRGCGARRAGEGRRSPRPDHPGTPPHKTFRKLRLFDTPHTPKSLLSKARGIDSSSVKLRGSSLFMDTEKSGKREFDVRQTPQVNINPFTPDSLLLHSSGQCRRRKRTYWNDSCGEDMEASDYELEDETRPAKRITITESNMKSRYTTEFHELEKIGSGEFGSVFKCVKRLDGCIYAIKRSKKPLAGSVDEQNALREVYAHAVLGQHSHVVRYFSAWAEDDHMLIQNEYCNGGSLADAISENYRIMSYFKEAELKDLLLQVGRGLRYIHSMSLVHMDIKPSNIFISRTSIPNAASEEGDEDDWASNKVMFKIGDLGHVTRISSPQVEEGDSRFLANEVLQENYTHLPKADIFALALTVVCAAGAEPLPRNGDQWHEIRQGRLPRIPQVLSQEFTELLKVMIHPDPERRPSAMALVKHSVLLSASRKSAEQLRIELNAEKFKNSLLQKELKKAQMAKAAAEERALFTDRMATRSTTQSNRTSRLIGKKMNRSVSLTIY
Chain of UniProt Q8N752 (whole entry, looked up): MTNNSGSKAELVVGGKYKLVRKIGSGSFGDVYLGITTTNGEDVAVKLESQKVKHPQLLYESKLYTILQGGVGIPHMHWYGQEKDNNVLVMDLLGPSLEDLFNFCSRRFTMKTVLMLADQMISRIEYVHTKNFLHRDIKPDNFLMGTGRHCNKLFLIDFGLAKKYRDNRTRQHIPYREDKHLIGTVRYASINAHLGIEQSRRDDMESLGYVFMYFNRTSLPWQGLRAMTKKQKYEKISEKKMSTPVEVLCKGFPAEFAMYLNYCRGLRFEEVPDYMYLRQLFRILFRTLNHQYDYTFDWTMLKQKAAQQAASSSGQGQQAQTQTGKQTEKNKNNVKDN
Chain of UniProt Q99683 (whole entry, looked up): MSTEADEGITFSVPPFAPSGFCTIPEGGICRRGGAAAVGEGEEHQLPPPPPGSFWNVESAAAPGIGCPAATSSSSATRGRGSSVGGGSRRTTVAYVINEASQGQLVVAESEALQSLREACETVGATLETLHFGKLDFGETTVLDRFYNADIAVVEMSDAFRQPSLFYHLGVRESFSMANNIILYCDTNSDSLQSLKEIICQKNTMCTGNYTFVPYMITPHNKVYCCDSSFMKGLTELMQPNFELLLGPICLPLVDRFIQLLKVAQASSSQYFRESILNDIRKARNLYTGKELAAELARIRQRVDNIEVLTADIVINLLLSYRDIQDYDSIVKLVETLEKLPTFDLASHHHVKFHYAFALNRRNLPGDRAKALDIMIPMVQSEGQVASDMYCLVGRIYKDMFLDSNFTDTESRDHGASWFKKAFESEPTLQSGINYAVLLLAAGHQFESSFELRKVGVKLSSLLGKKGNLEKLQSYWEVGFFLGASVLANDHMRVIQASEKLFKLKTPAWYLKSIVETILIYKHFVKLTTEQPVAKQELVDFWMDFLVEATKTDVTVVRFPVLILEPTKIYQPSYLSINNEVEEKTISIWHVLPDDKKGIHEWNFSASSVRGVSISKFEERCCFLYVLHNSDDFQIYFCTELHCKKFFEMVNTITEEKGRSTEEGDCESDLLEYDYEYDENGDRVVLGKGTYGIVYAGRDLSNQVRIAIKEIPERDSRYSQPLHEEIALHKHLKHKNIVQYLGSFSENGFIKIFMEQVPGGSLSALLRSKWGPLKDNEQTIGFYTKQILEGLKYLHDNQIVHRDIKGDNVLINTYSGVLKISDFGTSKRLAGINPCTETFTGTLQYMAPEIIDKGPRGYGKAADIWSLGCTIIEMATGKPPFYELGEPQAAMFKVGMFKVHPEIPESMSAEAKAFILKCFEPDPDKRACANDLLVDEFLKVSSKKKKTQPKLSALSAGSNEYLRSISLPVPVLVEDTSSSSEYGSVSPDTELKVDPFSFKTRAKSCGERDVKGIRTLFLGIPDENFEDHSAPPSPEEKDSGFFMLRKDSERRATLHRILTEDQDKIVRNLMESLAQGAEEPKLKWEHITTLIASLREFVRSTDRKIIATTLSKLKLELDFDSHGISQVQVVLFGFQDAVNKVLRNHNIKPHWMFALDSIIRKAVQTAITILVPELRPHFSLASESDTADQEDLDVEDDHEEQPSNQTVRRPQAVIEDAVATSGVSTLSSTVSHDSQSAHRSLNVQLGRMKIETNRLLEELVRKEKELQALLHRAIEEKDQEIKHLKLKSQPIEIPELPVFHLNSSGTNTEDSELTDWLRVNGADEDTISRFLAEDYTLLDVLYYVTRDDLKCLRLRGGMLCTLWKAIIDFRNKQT
Chain of UniProt Q9HC98 (whole entry, looked up): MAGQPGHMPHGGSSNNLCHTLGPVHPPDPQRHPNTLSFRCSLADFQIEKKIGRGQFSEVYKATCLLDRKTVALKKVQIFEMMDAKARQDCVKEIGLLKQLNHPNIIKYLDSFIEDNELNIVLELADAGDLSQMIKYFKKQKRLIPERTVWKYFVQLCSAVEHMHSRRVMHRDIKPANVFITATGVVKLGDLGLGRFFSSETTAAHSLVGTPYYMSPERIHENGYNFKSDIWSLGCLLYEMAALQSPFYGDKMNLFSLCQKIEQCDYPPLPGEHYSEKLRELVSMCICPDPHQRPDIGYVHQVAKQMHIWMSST

Study 1
SMILES: CCOCCn1cc(C(=O)Nc2ccc(-n3nc(-c4cccnc4)cc3C(F)(F)F)cn2)ccc1=O
Tested at: 1 µM
target	read-out	technique	remaining binding [%]
Casein kinase I isoform alpha-like (CSNK1A1L, Homo sapiens, UniProt Q8N752)	cell-free assay	competition with immobilised ligand	100
Cyclin-dependent kinase 13 (CDK13, Homo sapiens, UniProt Q14004)	cell-free assay	competition with immobilised ligand	92
Dual specificity tyrosine-phosphorylation-regulated kinase 1B (DYRK1B, Homo sapiens, UniProt Q9Y463)	cell-free assay	competition with immobilised ligand	39
Tyrosine-protein kinase ABL1, non-phosphorylated (ABL1, Homo sapiens, UniProt P00519, F317L)	cell-free assay	competition with immobilised ligand	100
RAC-beta serine/threonine-protein kinase (AKT2, Homo sapiens, UniProt P31751)	cell-free assay	competition with immobilised ligand	100
Aurora kinase C (AURKC, Homo sapiens, UniProt Q9UQB9)	cell-free assay	competition with immobilised ligand	88
Serine/threonine-protein kinase SIK2 (SIK2, Homo sapiens, UniProt Q9H0K1)	cell-free assay	competition with immobilised ligand	91
Dual specificity mitogen-activated protein kinase kinase 4 (MAP2K4, Homo sapiens, UniProt P45985)	cell-free assay	competition with immobilised ligand	80
Myosin light chain kinase 2, skeletal/cardiac muscle (MYLK2, Homo sapiens, UniProt Q9H1R3)	cell-free assay	competition with immobilised ligand	89
Phosphatidylinositol 4,5-bisphosphate 3-kinase catalytic subunit alpha isoform (PIK3CA, Homo sapiens, UniProt P42336, Q546K)	cell-free assay	competition with immobilised ligand	95
Fibroblast growth factor receptor 1 (FGFR1, Homo sapiens, UniProt P11362)	cell-free assay	competition with immobilised ligand	100
Mitogen-activated protein kinase kinase kinase 19 (MAP3K19, Homo sapiens, UniProt Q56UN5)	cell-free assay	competition with immobilised ligand	75
Mitogen-activated protein kinase kinase kinase kinase 2 (MAP4K2, Homo sapiens, UniProt Q12851)	cell-free assay	competition with immobilised ligand	76
Epidermal growth factor receptor (EGFR, Homo sapiens, UniProt P00533, del746-750)	cell-free assay	competition with immobilised ligand	92
Cyclin-dependent kinase 19 (CDK19, Homo sapiens, UniProt Q9BWU1)	–	competition binding	95
Serine/threonine-protein kinase PLK1 (PLK1, Homo sapiens, UniProt P53350)	cell-free assay	competition with immobilised ligand	100
Mitogen-activated protein kinase 11 (MAPK11, Homo sapiens, UniProt Q15759)	cell-free assay	competition with immobilised ligand	80
BMP-2-inducible protein kinase (BMP2K, Homo sapiens, UniProt Q9NSY1)	cell-free assay	competition with immobilised ligand	95
Proto-oncogene tyrosine-protein kinase Src (SRC, Homo sapiens, UniProt P12931)	cell-free assay	competition with immobilised ligand	90
Bone morphogenetic protein receptor type-2 (BMPR2, Homo sapiens, UniProt Q13873)	cell-free assay	competition with immobilised ligand	100
Epidermal growth factor receptor (EGFR, Homo sapiens, UniProt P00533, T790M)	cell-free assay	competition with immobilised ligand	100
Ephrin type-A receptor 7 (EPHA7, Homo sapiens, UniProt Q15375)	cell-free assay	competition with immobilised ligand	98
Serine/threonine-protein kinase D3 (PRKD3, Homo sapiens, UniProt O94806)	cell-free assay	competition with immobilised ligand	81
Serine/threonine-protein kinase 32C (STK32C, Homo sapiens, UniProt Q86UX6)	cell-free assay	competition with immobilised ligand	100
Serine/threonine-protein kinase WNK3 (WNK3, Homo sapiens, UniProt Q9BYP7)	cell-free assay	competition with immobilised ligand	76

Study 2
Structure (SMILES): Cn1nc2c3c(cccc31)C(=O)c1ccccc1-2
Read-out: enzyme activity
Mode: inhibitor
Tested at: 0.5 µM
Baseline: control
target	remaining activity
Fibroblast growth factor receptor 3 (FGFR3, Homo sapiens, UniProt P22607)	95.9%
Tyrosine-protein kinase ABL2 (ABL2, Homo sapiens, UniProt P42684)	97.8%
Wee1-like protein kinase (WEE1, Homo sapiens, UniProt P30291)	92.3%
Rhodopsin kinase GRK7 (GRK7, Homo sapiens, UniProt Q8WTQ7)	113%
Serine/threonine-protein kinase ULK3 (ULK3, Homo sapiens, UniProt Q6PHR2)	94.9%
MAP kinase-activated protein kinase 2 (MAPKAPK2, Homo sapiens, UniProt P49137)	102%
Mitogen-activated protein kinase kinase kinase 5 (MAP3K5, Homo sapiens, UniProt Q99683)	93.1%
Serine/threonine-protein kinase Nek1 (NEK1, Homo sapiens, UniProt Q96PY6)	78.3%
Macrophage-stimulating protein receptor (MST1R, Homo sapiens, UniProt Q04912)	96.7%
Mitogen-activated protein kinase 3 (MAPK3, Homo sapiens, UniProt P27361)	98.9%
Ephrin type-A receptor 3 (EPHA3, Homo sapiens, UniProt P29320)	93.5%
Serine/threonine-protein kinase Nek6 (NEK6, Homo sapiens, UniProt Q9HC98)	108%
Tyrosine-protein kinase FRK (FRK, Homo sapiens, UniProt P42685)	94.3%
Tyrosine-protein kinase JAK3 (JAK3, Homo sapiens, UniProt P52333)	107%

Study 3
Target: Calcium/calmodulin-dependent protein kinase type II subunit alpha (CAMK2A, Homo sapiens, UniProt Q9UQM7)
Chain of UniProt Q9UQM7 (whole entry, looked up): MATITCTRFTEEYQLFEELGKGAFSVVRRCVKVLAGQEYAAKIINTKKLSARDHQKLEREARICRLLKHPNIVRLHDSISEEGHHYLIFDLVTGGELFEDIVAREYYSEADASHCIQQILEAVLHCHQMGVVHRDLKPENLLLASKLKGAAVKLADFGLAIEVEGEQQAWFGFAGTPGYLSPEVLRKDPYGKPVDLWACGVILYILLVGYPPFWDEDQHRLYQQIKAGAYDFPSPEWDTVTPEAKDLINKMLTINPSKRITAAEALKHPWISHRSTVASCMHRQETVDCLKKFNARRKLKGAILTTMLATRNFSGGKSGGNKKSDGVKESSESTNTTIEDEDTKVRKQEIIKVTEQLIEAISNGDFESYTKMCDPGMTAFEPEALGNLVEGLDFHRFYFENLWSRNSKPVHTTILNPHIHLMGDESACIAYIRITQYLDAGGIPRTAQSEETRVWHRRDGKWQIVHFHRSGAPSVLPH
Read-out: enzyme activity
Mode: inhibitor
Tested at: 10 µM
SMILES	inhibition [%]
C[C@@H]1O[C@@H](O[C@H]2[C@H](OC(=O)[C@]34CCC(C)(C)C[C@H]3C3=CC[C@@H]5[C@@]6(C)C[C@H](O)[C@H](O[C@@H]7O[C@H](CO)[C@@H](O)[C@H](O)[C@H]7O)[C@](C)(CO)[C@@H]6CC[C@@]5(C)[C@]3(C)C[C@H]4O)OC[C@H](O)[C@@H]2O)[C@H](O)[C@H](O)[C@H]1O[C@@H]1OC[C@@H](O)[C@H](O[C@@H]2OC[C@](O)(CO)[C@H]2O)[C@H]1O	-2
C=CCC1=C[C@]2(OC)C(=O)C(OC)(OC)[C@H]1[C@@H]1C(OC)(OC)C(=O)C(OC)=C[C@@]12CC=C	5
CC(C)c1nc(CN(C)C(=O)N[C@@H](CCN2CCOCC2)C(=O)N[C@H](CC[C@H](Cc2ccccc2)NC(=O)OCc2cncs2)Cc2ccccc2)cs1	5
COc1cc2oc(=O)ccc2cc1O	-18
CCCCCCCCN=c1ccn(CCCCCCCCCCn2ccc(=NCCCCCCCC)cc2)cc1	32
CS(=O)(=O)OC[C@H](O)[C@@H](O)COS(C)(=O)=O	0
CN1[C@@H]2CCC[C@H]1C[C@@H](NC(=O)c1nn(C)c3ccccc13)C2	8
O=c1cc(-c2ccccc2)oc2cc(O)cc(O)c12	-23
CC(C)(O)[C@@H]1CC[C@](C)([C@H]2[C@@H](O)C[C@@]3(C)[C@@H]4C[C@H](O)[C@H]5C(C)(C)[C@@H](O[C@@H]6OC[C@@H](O)[C@H](O)[C@H]6O[C@@H]6O[C@H](CO)[C@@H](O)[C@H](O)[C@H]6O)CC[C@@]56C[C@@]46CC[C@]23C)O1	-17
CC=CC(=O)C1=C(C)C=CCC1(C)C	39

Study 4
Structure (SMILES): C=CCc1ccc(O)c(-c2cc(CC=C)ccc2O)c1
Read-out: chloride current
ANO1 del476-501/K629A: Anoctamin-1 (ANO1, Homo sapiens, UniProt Q5XXA6, del476-501/K629A)
Chain of UniProt Q5XXA6 (whole entry, unmodified, looked up): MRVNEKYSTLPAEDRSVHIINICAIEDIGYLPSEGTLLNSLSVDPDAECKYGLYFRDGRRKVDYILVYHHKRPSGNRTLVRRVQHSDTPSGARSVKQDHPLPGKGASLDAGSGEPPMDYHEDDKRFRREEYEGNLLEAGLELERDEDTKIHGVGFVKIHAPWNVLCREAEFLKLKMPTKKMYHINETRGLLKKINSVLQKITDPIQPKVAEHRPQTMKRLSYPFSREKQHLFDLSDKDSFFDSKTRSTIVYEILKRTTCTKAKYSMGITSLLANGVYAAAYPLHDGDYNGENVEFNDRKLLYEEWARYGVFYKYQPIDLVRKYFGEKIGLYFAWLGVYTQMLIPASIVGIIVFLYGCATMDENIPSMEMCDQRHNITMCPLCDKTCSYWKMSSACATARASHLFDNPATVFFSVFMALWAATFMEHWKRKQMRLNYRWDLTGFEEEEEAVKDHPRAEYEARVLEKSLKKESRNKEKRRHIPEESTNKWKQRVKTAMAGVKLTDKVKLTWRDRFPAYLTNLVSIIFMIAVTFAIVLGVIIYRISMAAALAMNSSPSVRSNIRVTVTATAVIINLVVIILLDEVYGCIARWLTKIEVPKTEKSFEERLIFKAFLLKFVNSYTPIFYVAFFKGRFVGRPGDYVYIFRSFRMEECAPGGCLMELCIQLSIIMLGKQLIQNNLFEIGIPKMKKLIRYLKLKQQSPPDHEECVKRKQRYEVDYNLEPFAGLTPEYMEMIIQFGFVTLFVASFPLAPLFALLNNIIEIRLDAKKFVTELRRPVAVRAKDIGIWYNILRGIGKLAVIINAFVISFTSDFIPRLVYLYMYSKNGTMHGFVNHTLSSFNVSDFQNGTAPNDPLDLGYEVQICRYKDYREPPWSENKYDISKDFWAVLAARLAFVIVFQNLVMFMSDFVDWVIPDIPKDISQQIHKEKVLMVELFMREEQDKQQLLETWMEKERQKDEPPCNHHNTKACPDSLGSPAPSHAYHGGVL
ANO1 del476-501/E649A/R541A: Anoctamin-1 (ANO1, Homo sapiens, UniProt Q5XXA6, del476-501/E649A/R541A)
ANO1 del476-501/E659A: Anoctamin-1 (ANO1, Homo sapiens, UniProt Q5XXA6, del476-501/E659A)
ANO1: Anoctamin-1 (ANO1, Homo sapiens, UniProt Q5XXA6)
ANO1 del476-501/R541A: Anoctamin-1 (ANO1, Homo sapiens, UniProt Q5XXA6, del476-501/R541A)
ANO1 del476-501/E649A: Anoctamin-1 (ANO1, Homo sapiens, UniProt Q5XXA6, del476-501/E649A)
target	mode	technique	tested at	notes	normalized current
ANO1 del476-501/K629A	–	inside-out patch clamp	30 µM	membrane voltage 120 mV	1
ANO1 del476-501/E649A/R541A	inhibitor	inside-out patch clamp	30 µM	R515A/E623A mutant at -100 mV	-0.44
ANO1 del476-501/K629A	–	inside-out patch clamp	30 µM	membrane voltage 40 mV	0.245
ANO1 del476-501/E659A	–	inside-out patch clamp	30 µM	membrane voltage 80 mV	0.566
ANO1 del476-501/E659A	inhibitor	inside-out patch clamp	30 µM	E633A mutant at -80 mV	-0.855
ANO1 del476-501/K629A	inhibitor	inside-out patch clamp	30 µM	K603A mutant at -100 mV	-0.601
ANO1	–	inside-out patch clamp	30 µM	membrane voltage 0 mV	-0.0005
ANO1 del476-501/E649A/R541A	inhibitor	inside-out patch clamp	30 µM	R515A/E623A mutant at -80 mV	-0.336
ANO1 del476-501/R541A	–	inside-out patch clamp	30 µM	membrane voltage 20 mV	0.114
ANO1 del476-501/K629A	–	inside-out patch clamp	30 µM	membrane voltage 20 mV	0.118
ANO1	–	inside-out patch clamp	30 µM	membrane voltage 20 mV	0.195
ANO1	–	inside-out patch clamp	30 µM	membrane voltage 120 mV	1
ANO1 del476-501/R541A	inhibitor	whole-cell voltage clamp	10 µM	R515A mutant	0.994
ANO1 del476-501/E649A	inhibitor	whole-cell voltage clamp	30 µM	E623A mutant	0.9
ANO1 del476-501/E649A	inhibitor	whole-cell voltage clamp	10 µM	E623A mutant	0.93
ANO1 del476-501/K629A	–	inside-out patch clamp	30 µM	membrane voltage 60 mV	0.395
ANO1 del476-501/K629A	inhibitor	inside-out patch clamp	30 µM	K603A mutant at -80 mV	-0.472

Excerpt of the above (study 4):
target	mode	technique	tested at	notes	normalized current
ANO1 del476-501/K629A	inhibitor	inside-out patch clamp	30 µM	K603A mutant at -100 mV	-0.601
ANO1 del476-501/K629A	inhibitor	inside-out patch clamp	30 µM	K603A mutant at -80 mV	-0.472
ANO1 del476-501/R541A	inhibitor	whole-cell voltage clamp	10 µM	R515A mutant	0.994
ANO1 del476-501/E649A	inhibitor	whole-cell voltage clamp	30 µM	E623A mutant	0.9
ANO1	–	inside-out patch clamp	30 µM	membrane voltage 0 mV	-0.0005
ANO1 del476-501/E649A/R541A	inhibitor	inside-out patch clamp	30 µM	R515A/E623A mutant at -100 mV	-0.44
ANO1 del476-501/R541A	–	inside-out patch clamp	30 µM	membrane voltage 20 mV	0.114
ANO1 del476-501/K629A	–	inside-out patch clamp	30 µM	membrane voltage 120 mV	1
ANO1	–	inside-out patch clamp	30 µM	membrane voltage 20 mV	0.195
